Measurements collected from several papers.
Numbers after ± are the reported error.

With C=CC(=O)Nc1cccc(Cn2ncc3cnc(Nc4cnn(CCOC)c4)nc32)c1 the serum LDL was 0.14 ± 0.05 mM (male Sprague-Dawley rat; oral, 180 mg/kg/day, day 28, 28-day subacute toxicity).
Under “mean tissue distribution”, CSCC[C@H](N)C(=O)N[C@@H](C)C(=O)N[C@@H](Cc1c[nH]c2ccccc12)C(=O)N[C@@H](Cc1c[nH]cn1)C(=O)N[C@@H](CC(=O)O)C(=O)N[C@@H](CC(=O)O)C(=O)N[C@@H](CCC(=O)O)C(=O)N[C@@H](CCC(=O)O)C(=O)N[C@@H](Cc1ccccc1)C(=O)N[C@@H](C)C(=O)N[C@@H](CCCNC(=N)N)C(=O)N[C@@H](CCCNC(=N)N)C(=O)N[C@@H](CCCNC(=N)N)C(=O)N[C@@H](CCCNC(=N)N)C(=O)NCCCCCC(=O)NCCCCC(NC(=O)CCCCCNC(=O)[C@H](CCCNC(=N)N)NC(=O)[C@H](CCCNC(=N)N)NC(=O)[C@H](CCCNC(=N)N)NC(=O)[C@H](CCCNC(=N)N)NC(=O)[C@H](C)NC(=O)[C@H](Cc1ccccc1)NC(=O)[C@H](CCC(=O)O)NC(=O)[C@H](CCC(=O)O)NC(=O)[C@H](CC(=O)O)NC(=O)[C@H](CC(=O)O)NC(=O)[C@H](Cc1c[nH]cn1)NC(=O)[C@H](Cc1c[nH]c2ccccc12)NC(=O)[C@H](C)NC(=O)[C@@H](N)CCSC)C(=O)NCCCCC(NC(=O)C(CCCCNC(=O)CCCCCNC(=O)[C@H](CCCNC(=N)N)NC(=O)[C@H](CCCNC(=N)N)NC(=O)[C@H](CCCNC(=N)N)NC(=O)[C@H](CCCNC(=N)N)NC(=O)[C@H](C)NC(=O)[C@H](Cc1ccccc1)NC(=O)[C@H](CCC(=O)O)NC(=O)[C@H](CCC(=O)O)NC(=O)[C@H](CC(=O)O)NC(=O)[C@H](CC(=O)O)NC(=O)[C@H](Cc1c[nH]cn1)NC(=O)[C@H](Cc1c[nH]c2ccccc12)NC(=O)[C@H](C)NC(=O)[C@@H](N)CCSC)NC(=O)CCCCCNC(=O)[C@H](CCCNC(=N)N)NC(=O)[C@H](CCCNC(=N)N)NC(=O)[C@H](CCCNC(=N)N)NC(=O)[C@H](CCCNC(=N)N)NC(=O)[C@H](C)NC(=O)[C@H](Cc1ccccc1)NC(=O)[C@H](CCC(=O)O)NC(=O)[C@H](CCC(=O)O)NC(=O)[C@H](CC(=O)O)NC(=O)[C@H](CC(=O)O)NC(=O)[C@H](Cc1c[nH]cn1)NC(=O)[C@H](Cc1c[nH]c2ccccc12)NC(=O)[C@H](C)NC(=O)[C@@H](N)CCSC)C(N)=O (stereo partly shown) is recorded as 1.43% (C57BL/6 mouse female, femur; dose not given, 6 h; relative to: total).
With C=Cc1c(C)c2cc3nc(c(CC(=O)[O-])c4[n-]c(cc5nc(cc1[n-]2)C(C)=C5CC)c(C)c4C(=O)[O-])C(CCC(=O)[O-])C3C.[Cu+2].[Na+].[Na+].[Na+] (stereo not shown) the serum AST was 126 ± 21.4 U/L (Wistar rat, male; oral, 250 mg/kg daily, 28 days).
The total bilirubin of CCCCCCCCCCCCCCCC(=O)N[C@@H](CCC(=O)NCCOCCOCCC(=O)NCCOCCOCCC(=O)NCCCC[C@H](NC(=O)[C@H](CC(=O)O)NC(=O)[C@H](CC(C)C)NC(=O)[C@H](Cc1ccc(O)cc1)NC(=O)[C@H](CCCCN)NC(=O)[C@H](CO)NC(=O)[C@H](Cc1ccc(O)cc1)NC(=O)[C@H](CC(=O)O)NC(=O)[C@H](CO)NC(=O)[C@@H](NC(=O)[C@H](Cc1ccccc1)NC(=O)[C@@H](NC(=O)CNC(=O)[C@H](CCC(N)=O)NC(=O)[C@@H](CO)NC(=O)[C@@H](N)Cc1c[nH]cn1)[C@@H](C)O)[C@@H](C)O)C(=O)N[C@@H](CCCNC(=N)N)C(=O)N[C@@H](CCCNC(=N)N)C(=O)N[C@@H](C)C(=O)N[C@@H](CCC(N)=O)C(=O)N[C@@H](CC(=O)O)C(=O)N[C@@H](Cc1ccccc1)C(=O)N[C@H](C(=O)N[C@@H](CCC(N)=O)C(=O)N[C@@H](Cc1c[nH]c2ccccc12)C(=O)N[C@@H](CC(C)C)C(=O)N[C@@H](CC(C)C)C(=O)N[C@@H](CC(N)=O)C(=O)N[C@H](C(=O)NCC(=O)NCC(=O)N1CCC[C@H]1C(=O)N[C@@H](CO)C(=O)N[C@@H](CO)C(=O)NCC(=O)N[C@@H](C)C(=O)N1CCC[C@H]1C(=O)N1CCC[C@H]1C(=O)N1CCC[C@H]1C(=O)N[C@@H](CO)C(N)=O)[C@@H](C)O)C(C)C)C(=O)O is reported as 1.4 ± 0.2 µmol/L (Sprague-Dawley rat, male; subcutaneous, 500 µg/kg once daily, 14 days).
CC[C@H](C)[C@H](NC(=O)[C@H](Cc1ccc(O)cc1)NC(=O)[C@@H](NC(=O)[C@H](CCCNC(=N)N)NC(=O)[C@@H](N)CC(=O)O)C(C)C)C(=O)N[C@@H](Cc1c[nH]cn1)C(=O)N1CCC[C@H]1C(=O)O gave an AUC of 914 ± 204 ng·h/mL (noncompartmental; Beagle dogs, both sexes, plasma; subcutaneous, 10 mg/kg/day, day 0).
With CC(C)=CCC/C(C)=C\CCn1cc(CC(P(=O)(O)O)P(=O)(O)O)nn1 the clearance was 15.7 mL/min/kg (CD-1 mouse, plasma; intravenous, 0.5 mg/kg, single dose).
The radioactivity uptake of N#[11C]c1ccc(-c2csc(NN=C3CCCC3)n2)cc1 is reported as 1.52 ± 0.25 %ID/g (C57BL/6 mice, male, spleen; intravenous, 3 MBq, 30 min).
CC[C@H](C)[C@H](NC(=O)[C@H](CCCCN)NC(=O)CNC(=O)[C@H](CC(C)C)NC(=O)[C@H](Cc1ccccc1)NC(=O)[C@H](CCCCN)NC(=O)[C@H](CO)NC(=O)[C@H](Cc1ccccc1)NC(=O)[C@H](Cc1c[nH]c2ccccc12)NC(=O)[C@H](CCC(N)=O)NC(=O)[C@@H](NC(=O)[C@H](Cc1ccccc1)NC(=O)CCCCCNC(=O)CN1CCN(CC(=O)O)CCN(CC(=O)O)CCN(CC(=O)O)CC1)C(C)C)C(=O)N[C@@H](CCC(=O)O)C(=O)N1CCC[C@H]1C(=O)N[C@@H](CC(=O)O)C(=O)N[C@H](C(=O)N[C@@H](CO)C(=O)N[C@@H](CCC(N)=O)C(=O)N[C@H](C(=O)N[C@@H](CCC(N)=O)C(=O)N[C@@H](CC(=O)O)C(=O)N1CCC[C@H]1C(=O)N[C@@H](CC(N)=O)C(=O)N[C@@H](CC(=O)O)C(=O)N[C@@H](CCC(N)=O)C(=O)N[C@@H](Cc1ccc(O)cc1)C(=O)N[C@@H](CCC(=O)O)C(=O)N1CCC[C@H]1C(=O)N[C@@H](Cc1ccccc1)C(=O)O)C(C)C)C(C)C [copper-64 labelled] has an SUVmean of 0.88 SUV (dynamic PET; mouse both sexes, CT26 tumour, untreated, tumour; intravenous, 100 µCi/mouse, 330 s).
For CC[C@H](C)[C@H](NC(=O)[C@H](C)NC(=O)CNC(=O)[C@H](Cc1c[nH]cn1)NC(=O)[C@@H](NC(=O)[C@H](Cc1ccccc1)NC(=O)[C@H](CCCCN)NC(=O)CNC(=O)[C@H](C)NC(=O)[C@H](CCCCN)NC(=O)[C@H](Cc1ccccc1)NC(=O)[C@@H](NC(=O)[C@H](Cc1c[nH]cn1)NC(=O)[C@H](CCCCN)NC(=O)[C@H](Cc1ccccc1)NC(=O)[C@@H](NC(=O)[C@H](CO)NC(=O)CNC(=O)[C@H](Cc1c[nH]c2ccccc12)NC(=O)CNC(=O)[C@H](C)N)[C@@H](C)CC)[C@@H](C)CC)[C@@H](C)CC)C(=O)N[C@@H](CCC(N)=O)C(=O)N[C@@H](C)C(=O)N[C@@H](Cc1c[nH]cn1)C(=O)N[C@@H](CC(N)=O)C(=O)N[C@@H](CC(=O)O)C(N)=O, “chronic toxic concentration” read 5 µM (zebrafish embryos 4 hpf, E3 medium; 24 h).
For CCCCCCCCCCCC(=O)C(C)C(=O)N1CCC[C@H]1C(=O)NC(C)(C)C(=O)NC(C)(C)C(=O)NC(C)(C)C(=O)N[C@](C)(CC)C(=O)NCCC(=O)N[C@@H](C)C(=O)N[C@](C)(CC)C(=O)N[C@@H](C)C(=O)N[C@@H](CC(C)C)C(=O)N[C@](C)(CC)C(=O)NCCC(=O)N[C@@H](C)C(=O)N[C@](C)(CC)C(=O)NCCC(=O)N[C@@H](C)C(=O)NC(C)(C)C(=O)NC(C)(C)C(=O)NC(C)(C)C(=O)N[C@@H](C)C(=O)N[C@@H](CC(=O)O)C(=O)O (stereo partly shown), “remaining intact peptide” read 42.7% (LC-MS; 50% pooled human serum in Tris-HCl buffer; 40 µM, 2 h, pH 7.5, 37 °C; relative to: 0 h value).
C=C/C=C/C[C@@H](C)[C@@H](O)[C@H]1C(=O)N[C@@H](CC)C(=O)N(C)CC(=O)N(C)[C@@H](CC(C)C)C(=O)N[C@@H](C(C)C)C(=O)N(C)[C@@H](CC(C)C)C(=O)N[C@@H](C)C(=O)N[C@H](C)C(=O)N(C)[C@@H](CC(C)C)C(=O)N(C)[C@@H](CC(C)C)C(=O)N(C)[C@@H](C(C)C)C(=O)N1C: “plasma HCO3− level” 24.2 ± 0.7 mmol/L (Wistar Kyoto rat, male, plasma; ip, 0.5 mg/kg/day, day 18).
Under “body weight change”, COc1cnc2cccc(N3CCc4c(cc(Cn5ccnc5)cc4-c4cn(C)nc4C(F)(F)F)C3=O)c2c1 is recorded as 8.3% (CD-1 mouse; intraperitoneal, 100 mg/kg once daily, day 4, dose-escalation tolerability; relative to: day 1).
CC(=O)NCCCC[C@@H]1NC(=O)[C@H](Cc2c[nH]c3c(C)cccc23)NC(=O)[C@H]([C@@H](C)O)NC(=O)[C@H](CC(N)=O)NC(=O)[C@@H](NC(C)=O)C(C)(C)SSC(C)(C)[C@@H](C(=O)N[C@@H](Cc2ccc(OCCN)cc2)C(=O)N[C@@H](Cc2ccc3ccccc3c2)C(=O)NC2(C(=O)N[C@@H](CCC(=O)O)C(=O)N[C@@H](CC(N)=O)C(=O)N[C@@H](Cc3cccnc3)C(=O)N(C)CC(N)=O)CCOCC2)NC1=O has an unbound fraction of 73.2 ± 1.7% (equilibrium dialysis; albumin plus glycoprotein; 0.01 µM, albumin 4%, glycoprotein 0.07%).
O=C(CN1CCN(CC(=O)NCc2ncccc2O)CCN(CC(=O)NCc2ncccc2O)CCN(CC(=O)NCc2ncccc2O)CC1)NCc1ncccc1O.[177Lu+3] — result for “time to death”: no more than 1 min (rat; intravenous, 0.1 mmol/kg).
With CCCC[C@H]1C(=O)N(C)[C@@H](CCCC)C(=O)N[C@@H](CCCNC(=O)CN2CCN(CC(=O)O)CCN(CC(=O)O)CCN(CC(=O)O)CC2)C(=O)N[C@H](C(=O)NCC(N)=O)CSCC(=O)N[C@@H](Cc2ccc(O)cc2)C(=O)N(C)[C@@H](C)C(=O)N[C@@H](CC(N)=O)C(=O)N2CCC[C@H]2C(=O)N[C@@H](Cc2c[nH]cn2)C(=O)N[C@@H](CC(C)C)C(=O)N(C)CC(=O)N[C@@H](Cc2c[nH]c3ccccc23)C(=O)N[C@@H](CO)C(=O)N[C@@H](Cc2c[nH]c3ccccc23)C(=O)N1C [gallium-68 labelled] the tumour uptake was 4.09 ± 0.76 %ID/g (NOD/SCID mice, CHO-hPD-L1 xenograft, tumour; 10 min p.i.).
For O=C1NC2(CC2)COc2ncc(F)cc2[C@H]2COCCN2c2ccn3ncc1c3n2, “organ-to-brain weight ratio” read 56 ± 9.29% (Sprague-Dawley rat, female, spleen; oral, 5 mg/kg/day, 4 weeks, end of treatment).

For quick reference, copied from above:
CC[C@H](C)[C@H](NC(=O)[C@H](CCCCN)NC(=O)CNC(=O)[C@H](CC(C)C)NC(=O)[C@H](Cc1ccccc1)NC(=O)[C@H](CCCCN)NC(=O)[C@H](CO)NC(=O)[C@H](Cc1ccccc1)NC(=O)[C@H](Cc1c[nH]c2ccccc12)NC(=O)[C@H](CCC(N)=O)NC(=O)[C@@H](NC(=O)[C@H](Cc1ccccc1)NC(=O)CCCCCNC(=O)CN1CCN(CC(=O)O)CCN(CC(=O)O)CCN(CC(=O)O)CC1)C(C)C)C(=O)N[C@@H](CCC(=O)O)C(=O)N1CCC[C@H]1C(=O)N[C@@H](CC(=O)O)C(=O)N[C@H](C(=O)N[C@@H](CO)C(=O)N[C@@H](CCC(N)=O)C(=O)N[C@H](C(=O)N[C@@H](CCC(N)=O)C(=O)N[C@@H](CC(=O)O)C(=O)N1CCC[C@H]1C(=O)N[C@@H](CC(N)=O)C(=O)N[C@@H](CC(=O)O)C(=O)N[C@@H](CCC(N)=O)C(=O)N[C@@H](Cc1ccc(O)cc1)C(=O)N[C@@H](CCC(=O)O)C(=O)N1CCC[C@H]1C(=O)N[C@@H](Cc1ccccc1)C(=O)O)C(C)C)C(C)C [copper-64 labelled] has an SUVmean of 0.88 SUV (dynamic PET; mouse both sexes, CT26 tumour, untreated, tumour; intravenous, 100 µCi/mouse, 330 s).
